Published values pooled from the literature.
Lines come from different studies, so protocols differ. “And” joins repeats or separate records; there may be more than shown. ± gives the spread as reported.

Structure (SMILES)	test	system	setting	how to read	measurement	value
CN(C)C(=O)c1cc2cnc(Nc3ccc(N4CCNCC4)cn3)nc2n1C1CCCC1	RNA-seq GSEA, refers to: HALLMARK_PANCREAS_BETA_CELLS gene set	MB002 tumour	concentration not given	baseline: vehicle, direction not given	enrichment score	-0.439
C[C@@H](NC(=O)N1C(=O)[C@H](Cc2ccnc(N)c2)[C@H]1C(=O)O)C1CCCCC1		human	iv infusion, 1.0 mg/kg/h, 24 h	baseline: baseline	time to aPTT Emax	24 h
N#Cc1ccc2c(-c3ccncc3)c(-c3ccc(F)cc3)nn2c1	kinase binding, competitor, MIB/MS competition, refers to: RIM8	Candida albicans cell lysate	10 µM	baseline: DMSO	log2 fold change	0.0776
CC(CCc1ccc(O)cc1)NCCc1ccc(O)c(O)c1 (stereo not shown)		anaesthetised instrumented rat	iv infusion, 1 µg/kg/min, end of infusion	baseline: baseline	mean arterial pressure decline	3%
COc1nc(-c2cc(C)c(N[C@@H](C)c3cc(F)cc(F)c3)nn2)ccc1-n1cnc(C)c1	refers to: Aβ40	rat Sprague-Dawley male, CSF	oral, 50 mg/kg daily for 9 days, 4 h after dose	baseline: vehicle	change in level	78%
CO[C@H]1CC[C@H](N2C(=O)CNc3ncc(-c4ccc(C(C)(C)O)nc4)nc32)CC1	flow cytometry	stimulated T cells, human, blood	30 mg single dose, 24 h, mean	baseline: baseline	p4EBP1 change from baseline	-36.9%
CC(C)c1c(C(=O)Nc2ccccc2)c(-c2ccccc2)c(-c2ccc(F)cc2)n1CC[C@@H](O)C[C@@H](O)CC(=O)O		cynomolgus monkey, male, serum	40 mg/kg or 25 mg/kg, day 86, 2064 h		triglycerides	37.8 mg/dL
CC(C)[C@H](C(=O)Nc1ccc(C(=O)NO)cc1)c1ccccc1	volumetric MRI	human, left IAC schwannoma	dose not given, day 57		tumour volume	6.8 cm3
CCCCOc1nc(N)c2c(n1)N(Cc1cccc(CN3CCCC3)c1)CC(=O)N2		human, blood	dose not given, 12 h, VOR		TLR7 mRNA level	increased
CCCSc1nsc(NC(=O)c2cnc3ccccc3n2)n1	CoA-CPM signal reduction, CPM fluorescence thiol	cell-free biochemical	assay interference counter-screen, together with: CoA replacing acetyl-CoA		IC50	> 125 µM
COc1ccc(-c2ncn(S(=O)(=O)c3cc(C(F)(F)F)cc(C(F)(F)F)c3)n2)cc1	HPLC-MS		pH 10.2, together with: 50 mM N-α-acetyl-lysine		pseudo-first-order rate constant	1.3 h⁻¹
COc1cc(-c2ccccc2)ncc1C(=O)Nc1ccc2c(=O)[nH]c(-c3ccc(C(C)(C)O)cc3)nc2c1	RNA-seq GSEA, refers to: HALLMARK_MYC_TARGETS_V2	organoids, small intestinal, Apc Q1405X, mouse	dose not given, wild-type organoids	baseline: DMSO, direction not given	normalized enrichment score	-1
CN(c1ccccc1)c1nc(-c2ccccc2)no1	CoA-CPM signal reduction, CPM fluorescence thiol	cell-free biochemical	assay interference counter-screen, together with: CoA replacing acetyl-CoA		IC50	> 125 µM
CN1CC[C@H](c2c(O)cc(O)c3c(=O)cc(-c4ccccc4Cl)oc23)[C@H](O)C1		zebrafish embryos	dose not given, 24 hpf		RNA Pol II CTD Ser2 phosphorylation	decreased
COc1ncc(-c2nc3c(n2C(C)C)[C@H](c2ccc(Cl)cc2)N(c2cc(Cl)cn(C)c2=O)C3=O)c(OC)n1	antileukemic activity, refers to: treatment failure, indeterminate cause	human, acute myeloid leukaemia	20 to 30 mg, low-dose		best overall response	28.6%
Cc1n[nH]c2ccc(-c3cc(OC[C@@H](N)Cc4ccccc4)cnc3-c3ccoc3)cc12	kinase binding, competitor, MIB/MS competition, refers to: KIN3	Candida albicans cell lysate	1 µM	baseline: DMSO	log2 fold change	0.0107
O=[N+]([O-])c1c(Sc2ccc(Cl)cc2)ccc2nsnc12	CoA-CPM signal reduction, CPM fluorescence thiol	cell-free biochemical	assay interference counter-screen, together with: CoA replacing acetyl-CoA		IC50	> 125 µM
Cn1cc(Nc2nccc(-c3ccc4c(c3)CN(C3COC3)CC[C@H]4NC(=O)c3cn(C(C)(C)C)nn3)n2)cn1	refers to: Endocannabinoid Cancer Inhibition Pathway	splenic B cells, Mus musculus	30 mg/kg, together with: IgD activation	baseline: vehicle, direction not given	pathway activation z-score	0.392
C[C@H]1O[C@@H](O[C@H]2CC[C@@]3(C)[C@@H](CC[C@]4(C)[C@@H]3C=C[C@]35OC[C@@]6(CCC(C)(C)C[C@H]63)[C@@H](O)C[C@]54C)[C@]2(C)CO)[C@H](O)[C@@H](O[C@@H]2O[C@H](CO)[C@@H](O)[C@H](O)[C@H]2O)[C@H]1O	Western blot, refers to: PGC-1α	chronic-plus-binge ethanol-fed mice, liver	dose not given, dose level -H, unit not given	baseline: β-actin	protein level	1.04 and 0.534 and 1.07

Structure (SMILES)	test	system	setting	how to read	measurement	value
CCc1c(C)nc(-c2ccc(Cl)s2)nc1Nc1ccc(CC(=O)O)cc1		mice, chronic ethanol plus binge, liver	intraperitoneal, 0.3 mg/kg daily, ethanol diet 4 weeks, dosed last two	baseline: vehicle	TUNEL-positive cells	decreased
C[C@@H](O)CCOC(=O)C[C@@H](C)O	refers to: Asx	human, plasma	60 min, log2-transformed values		metabolite level	3.67 ± 0.35 µmol/L
C[C@H]1C[C@H]2CSC(N)=N[C@@]2(c2nc(NC(=O)c3ccc(OC(F)F)cn3)cs2)CO1	refers to: total Aβ	healthy adults, plasma	40 mg single dose, 8 h post-dose	baseline: placebo	percent change from baseline	-47.8%
O=C(O)CNC(=O)Cc1ccccc1		ventricular cardiomyocytes, C57BL/6 mouse	dose not given, 0.152 s		sarcomere length	1.66 µm
C[C@H](Oc1ccc(Br)cc1-c1ccon1)C(=O)O	muscle velocity recovery cycles	human, tibialis anterior muscle	600 mg once daily, multiple doses, multiple ascending dose	baseline: placebo	relative refractory period	-0.08 ms
Cc1ccc([C@@H]2O[C@H](CO)[C@@H](O)[C@H](O)[C@H]2O)cc1Cc1ccc(-c2ccc(F)cc2)s1		Japanese type 2 diabetes patients	100 mg, day 2	baseline: day 1	change in fasting plasma glucose	-19 mg/dL
C=CC(=O)Nc1cc(Nc2nccc(Nc3cc(Cl)c(F)cc3C(C)(C)O)n2)c(OC)cc1N1CC[C@@H](N(C)C)C1		human, EGFR exon20ins NSCLC	dose not given, V769_D770insASV subtype		confirmed objective response rate	40%
CN(C)C(=O)Nc1cccc(-c2ccc(N(C)C)cc2)c1	qPCR, refers to: Srebf1	high-fat diet-fed mice, liver	dose not given	baseline: vehicle-treated obese mice	relative mRNA level	0.998 and 0.82 and 1.05 and 1.21 and 0.914
O=C(NC[C@H]1CN(c2ccc(N3CCOCC3=O)cc2)C(=O)O1)c1ccc(Cl)s1		human mild renal impairment, plasma	10 mg, geometric mean, unit not given	baseline: baseline	maximum prothrombin time prolongation	8.63
CCCSc1nsc(NC(=O)CN2CCN(c3ccccc3)CC2)n1	CoA-CPM signal reduction, CPM fluorescence thiol	cell-free biochemical	assay interference counter-screen, together with: CoA replacing acetyl-CoA		IC50	> 125 µM
CC(=O)Oc1cc2c(s1)CCN(C(C(=O)C1CC1)c1ccccc1F)C2 (stereo not shown)	platelet aggregation, light transmission aggregometry	human patients, platelet-rich plasma	2 h, together with: TRAP 15 µM		patients with IPA above 80%	0%
CC(C)c1ccc(S(=O)(=O)Nc2ccc(O)c(Cl)c2)cc1	CoA-CPM signal reduction, CPM fluorescence thiol	cell-free biochemical	assay interference counter-screen, together with: CoA replacing acetyl-CoA		IC50	> 125 µM
NC(=O)c1cnc2[nH]ccc2c1N[C@@H]1[C@@H]2CC3C[C@H]1C[C@@](O)(C3)C2	CD8+ effector T cells, flow cytometry	Caucasian humans, peripheral blood	200 mg single dose	baseline: baseline	percent change	0.47%
CSCCNc1nc(SCCC(F)(F)F)nc2c1ncn2[C@@H]1O[C@H](COP(=O)(O)OP(=O)(O)C(Cl)(Cl)P(=O)(O)O)[C@@H](O)[C@H]1O	light transmittance aggregometry	human patients, platelet-rich plasma	dose not given, 2 h, together with: ADP 20 µM		inhibition of platelet aggregation	34.1 ± 22.3%
C[C@@H]1CCC[C@H](n2cnc(-c3cc(Cl)ccc3-n3cc(Cl)nn3)cc2=O)c2cc(ccn2)-c2c(cnn2C(F)F)NC1=O		cynomolgus monkey plasma	IC2× aPTT, Actin FS reagent		concentration for aPTT prolongation	1200 nM
COc1cc(F)c([C@@H]2CNC(=O)[C@H]2NC(=O)Nc2ccccc2)c(F)c1	terminal haemodynamics	rat, permanent coronary occlusion MI	1 mg/kg, 1008 h, 6 weeks post-MI		mean arterial pressure	106 ± 10 mmHg
OC(CCN1CCCCC1)(c1ccccc1)C1CC2C=CC1C2 (stereo not shown)	resting-state EEG	healthy elderly humans	oral, 2 mg, eyes open, LS mean		EEG Alpha2-power Pz-O2	3 µV²
NCC(=O)Nc1cncc(-c2nn3c(=O)cc(N4CCNCC4)nc3s2)c1	ADP-induced platelet aggregation, light transmission aggregometry	human, stable CAD on aspirin, platelets ex vivo	subcutaneous, 0.075 mg/kg, 60 min post-dose, together with: ADP 20 µM		inhibition	63.1%
